Results gathered from unrelated publications.
Every numbered part comes from another study and shows a few of its results, in no order. Substitutions count along the parent as printed.

Series 1
Target: Histone acetyltransferase KAT6A, winged helix 2, GST fusion (KAT6A, Homo sapiens, UniProt Q92794, residues 85-181)
Technique: protein binding microarray
Molecule type: double-stranded DNA, one strand shown
Sample: in vitro
Concentration: not given
Setting: 8-mer, flanks averaged, mean of 2 arrays, mostly near background
Baseline: not given
Reading: higher = stronger binding
Quantity: E-score
Construct (chain): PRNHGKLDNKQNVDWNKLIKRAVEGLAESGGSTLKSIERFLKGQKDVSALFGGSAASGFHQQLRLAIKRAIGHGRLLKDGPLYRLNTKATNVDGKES
AAATTGCC: 0.0666
ACTCCCCG: 0.215
GCGGGTAC: 0.19
AAGCATGT: -0.0352
AGTCAGTG: 0.00692
ATTGCACA: 0.0724
CCCAATCA: 0.00427
CAGTCTGC: -0.102
AGACGCAC: 0.0571
AAGAGAAC: -0.134
AAGCTTTA: -0.117
AACGTTAT: -0.27
GGCCGGAA: 0.177
AGCTAGGG: -0.0183
AACTCCTG: -0.0571
AGGAATTA: 0.0143
AGGTCATA: -0.141
AGCGGCGA: 0.226
ACATTTCG: -0.187
ACACTGAG: -0.0196
AATAACGC: -0.0703
ATAAAGTC: -0.109
AACGAAGC: 0.0189
CCTAAATC: -0.00869
CATGGCTC: 0.0281

Series 2
Target: RNA binding protein fox-1 homolog 2, RRM domain, GST-SBP tag (RBFOX2, Homo sapiens, UniProt O43251-10, residues 100-194)
Technique: RNA Bind-n-Seq
Molecule type: RNA
Sample: in vitro
Concentration: 365 nM
Setting: natural RNA segment, single round, ends assumed
Baseline: no-protein control
Reading: higher = stronger binding
Quantity: RBNS enrichment (R)
All sequences stand within: GGGAGUUCUACAGUCCGACGAUC … UGGAAUUCUCGGGUGCCAA
Target sequence (chain): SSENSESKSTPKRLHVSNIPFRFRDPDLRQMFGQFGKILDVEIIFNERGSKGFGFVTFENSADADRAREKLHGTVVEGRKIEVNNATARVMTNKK
ACCCUUGGCUUGGGCCCAUGCCCAGCGCAGGCCUGAAGACCACCCUCCCGAGAGGAACCAGCCCGGUAAGAGGGCACACGCUGAUGCGGCUUCCCGGUCCCUCCGCGUGU: 0.344
UGGACAUUCACCGUUUAUACAUGGGCUCACACCCGUGUGAGCAGAGGAGACCCUGUGUUUUCAGUGGAAUCAGAUCUUCCUCAGUUGGGGCCUUCCUUGUCCCCCCGUGG: 0.375
CCUUCUGGACCCCUCCACUCUGGCCGUACCCGAUGGUCUGAGUGGUUUUGCCACCUCCUCUCUCAGUAUCACUCCCUCCUCCCCAAACCCCAAUCUCCAGUGUCUGUAGC: 0.649
AAUCAGAAUUGUUAUCUUUGUUCAGGUAAAAUGAGUUGCAAGAUAUUGUGGGUACUUUUGUGUGCUCAUUUGUGUUUUCCCCCCCUCCUACAACAUUUUUUUAACCCCAA: 0.555
CCUAGCUGGCCCCAGGCUGGGGUCCUAUGCAAAGCAGGAUCCCACUAAUGGGAUUCAGGCAGAAGUGUCUACCUUGAUAGGUGGGGUGGGACCACAUCCUCCACUGUGGC: 0.286
CAGGCCUCAGGAGUGGUCAGGACCACCAAGCCCCUCCUCUCCCCCUCCACACCUCUAGACCUGGGGCCUCCGGAACCCCCAGCAGGCUGGGCUUAUACUAGCUCCUGACU: 0.4
CUGGAGAUUCCCUGUCAGGAACUUUUCAUCCUGAAGUACAGUGGUGGGCUAGUCACCAAAGGAUGAAGUUCAGCACGUGGGACAGAGAUAACGACAAUUACCAAGGAAAC: 11.6
GAAGAAAGGCCUUGUAAGUGACAAGACAGUCCCCUGGGAAGAAAGAGAAAGGAAAUGGGCUAUUGCCAAAGGACAGGUGGCGUUAGAUGGCUGUGAGGGUGACCUGGUGA: 1.33
UGAUUGUGUCCAAUAUGGUGUCUCGCUUGUGUCCUUAUUGGUCCCUUACCCUUUCUGUGUCCAUUGCUGGCCAUGGUCACUGAACUUGAAAUCACAGCCCUGCCAUUGGA: 1.72
AGUAUACAUAUAUAUUUAUAUCACAAUUUACGAAACCAAAAAGUUGAGUUUCCAAUGGAACCCUUGUUUUUUAAUAAUCGACUUUUUAAAUGUGAUCAGGACUAUAAUAU: 0.466
UUGAGACCCCAGAGGACCAGAACGAUCUACGGAAAAUGCAGCUUCGAGAGUUGGCUCGCUUGAAUGGCACUCUACGGGAAGAUGAUAAUAGGAUCUUAAGGCCCUGGCAG: 0.897
CAGAUGAAAGCACAGUAGUAGCUGACAGCUGGCUUAUUUGGUCCCUCGGCAUCUCUCGUAUGUGGCAUAUUGCUUUUGCCACUUUCCUAUCCAGCAGACAUCAAAGCAAA: 0.5

Series 3
Target: Interferon regulatory factor 7, full length, phosphomimetic (IRF7, Homo sapiens, UniProt Q92985, residues 1-503, S101K/S471D/S472D/S475D/S476D/S477D/S483D/S484D/S487D)
Sequence of UniProt Q92985 (whole entry, unmodified, looked up): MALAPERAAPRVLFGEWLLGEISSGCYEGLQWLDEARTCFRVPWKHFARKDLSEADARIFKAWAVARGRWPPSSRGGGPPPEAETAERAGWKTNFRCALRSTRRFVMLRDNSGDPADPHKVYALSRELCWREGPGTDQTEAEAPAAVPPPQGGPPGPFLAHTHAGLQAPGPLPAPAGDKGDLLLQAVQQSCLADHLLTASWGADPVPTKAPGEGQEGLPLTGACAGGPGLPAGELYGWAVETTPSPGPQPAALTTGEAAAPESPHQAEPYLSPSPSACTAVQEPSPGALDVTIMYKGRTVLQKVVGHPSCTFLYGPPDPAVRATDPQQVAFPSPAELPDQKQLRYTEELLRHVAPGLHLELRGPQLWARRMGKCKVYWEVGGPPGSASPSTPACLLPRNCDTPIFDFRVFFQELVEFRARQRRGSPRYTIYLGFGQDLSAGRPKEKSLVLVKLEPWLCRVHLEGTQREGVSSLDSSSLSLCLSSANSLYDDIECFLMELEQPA
Technique: protein-binding microarray
Molecule type: double-stranded DNA, one strand shown
Sample: in vitro
Concentration: 250 nM
Setting: 60-bp whole probe
Together with: salmon DNA 0.4 mg/ml
Baseline: random background probes
Reading: higher = stronger binding
Quantity: log fluorescence
All sequences stand within: GCCTAGCAC … GTCTTGATTCGCTTGACGCTGCTG
TCATAGTTGTGTCTTGCACTGTGCTAG: -0.428 z-score
GACGATAGCAGTCTCGAGACGTGCTAG: 0.138 z-score
TCACTTATGATATATATAACTGTGCTA: 0.742 z-score
TCATGTGTCTTAAATAGGACTGTGCTA: 0.308 z-score
GACGGTATCCTCTTCCTGACGTGCTAG: 0.162 z-score
TTAGGACGGGACTATCGGTTAGTGCTA: -0.387 z-score
GACGGTTTCGGGTGTCGGGACGTGCTA: 5.57 z-score
TTAGATTGCAGTATCGATTAGTGCTAG: 0.642 z-score
GTCGAACTGGGGACTGGAGACGTGCTA: -0.267 z-score
TTAGATATTAGTCTCGATTAGTGCTAG: 2.01 z-score
AGAAACTTGTGTTTGTCCCTGTGCTAG: -0.144 z-score
TTATATATCAGTCTCGATTAGTGCTAG: 2.03 z-score
GAGTCTTCCCTTTTAAGTTCGTGCTAG: 1.78 z-score
TTAGGACTGGGACTCGGTTAGTGCTAG: 0.883 z-score
TTAGGTCTCCGTCTCGGTTAGTGCTAG: 0.343 z-score
CTAATTTTCAATTCCTGAAAGTGCTAG: 1.6 z-score
GACGATATCGGGTTTCGCGACGTGCTA: 0.474 z-score

Series 4
Target: CEBPE, bZIP domain (human)
Technique: DHFR protein complementation
Sample: yeast
Setting: single substitutions, most at no-binding floor
Baseline: wild-type JUN-FOS pair
Reading: higher = stronger binding
Quantity: binding fitness
Starting sequence: JUN, bZIP domain (human); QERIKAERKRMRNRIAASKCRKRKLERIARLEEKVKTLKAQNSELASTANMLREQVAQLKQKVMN; partner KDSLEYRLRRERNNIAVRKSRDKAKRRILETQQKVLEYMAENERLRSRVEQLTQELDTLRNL
E32A: -1.15 natural log
M51H: -1.1 natural log
T48A: -1.24 natural log
A46Y: -1.2 natural log
K39T: -1.3 natural log
Q55G: -1.49 natural log
A46Q: -1.04 natural log
S47I: -1.15 natural log
E33L: -1.25 natural log
L52E: -1.62 natural log
A49P: -1.48 natural log
V56R: -1.52 natural log
K39S: -1.29 natural log
A29W: -1.22 natural log
A46L: -0.99 natural log
T37K: -1.01 natural log
K34D: -1.39 natural log
A29L: -1.25 natural log
S43C: -1.17 natural log
A46M: -1.1 natural log
S47L: -1.18 natural log
A29T: -1.12 natural log
L52Y: -1.43 natural log
V56P: -1.52 natural log
K36S: -1.09 natural log

Series 5
Target: Fragile X messenger ribonucleoprotein 1, C-terminal low-complexity region (Fmr1, Mus musculus, UniProt P35922)
Technique: RNA Bind-n-Seq
Molecule type: RNA
Sample: in vitro
Concentration: 200 nM
Setting: whole 134-nt RNA, ends assumed
Together with: 150 mM LiCl
Baseline: input library
Reading: higher = stronger binding
Quantity: log2 enrichment
Each molecule: 7-deaza-guanosine replaces G
All sequences stand within: GGGAGUUCUACAGUCCGACGAUC … UGGAAUUCUCGGGUGUCAAGG
AGAAAGCCCAGGAGGAACCACCUGCCAAGCUGCUGGAUGACCUUUUCCGAAAGACCAAGGCAGCUCCCUGCAUCUAUUGGCUCCCACUGA: -0.177
CAAGUCCUGUGCUACACAUCGUAUGUACCGAAUCGGGCCCGGCCCGGGGCCCGGGGAAAGUAUUAUGUUACGCCGUUCGGAUCUGCACUU: -2.66
CCUGUGCUACACAUCGUAUGUACCGAAUCGGGGAAAAAGGGGUUUGGGGUUUUUUUGGGGAAAGUAUUAUGUUACGCCGUUCGGAUCUGC: -0.851
CUGUGCUACACAUCGUAUGUACCGAAUCGGAAAAAAAGGGGAAAAAAAGGGAAAAAAAGGGGAAAGUAUUAUGUUACGCCGUUCGGAUCU: 0.0963
GCAGGAAGUAUAAACAAAUGGAAAUGCUUCGGAUAGUGGCAGGGGUGGGGGUUGCUAAGGAAAGGGUGGGAUGGGAGUGGGUAAAGAGUU: 1.4
UGGGAGGUGAAUUUUGUUUAUUUUUUUAGCUCAUUUCCAGGGGUGGGAAUUUUUUUUUAAUAUGUGUCAUGAAUAAAGUUGUUUUUGAAA: -0.421
UCAAGUCCUGUGCUACACAUCGUAUGUACCGAAUCGGGAGGGUGGGAAAAAGGGAAAGUAUUAUGUUACGCCGUUCGGAUCUGCACUUCC: -0.901
UAACUUUAGAGGAGGAUCUGAUGGAUAUGGCAGUGGACGUGGAUUUGGGGAUGGCUAUAAUGGGUAUGGAGGAGGACCUGGAGGUGUCAA: -0.0804
AGUAGCUAUGGUCAACAAAGCAGCUAUGGGCAGCAGCCUCCCACUAGUUACCCACCCCAAACUGGAUCCUACAGCCAAGCUCCAAGUCAA: 1.37
UGGAUAUGGUUAUAGAAGAAGUGGCCGAGAUAAAUAUGGCCCUCCUACUCGCACAGAGUACAGACUUAUUGUGGAGAAUUUGUCAAGUCG: -1.97
AAGUCCUGUGCUACACAUCGUAUGUACCGAAUCGGGGAAAAGGGGAAAAGGAAAAGGAAAGUAUUAUGUUACGCCGUUCGGAUCUGCACU: 0.102

Some of these lines once more (series 1):
AAATTGCC: 0.0666
ACTCCCCG: 0.215
GCGGGTAC: 0.19
AAGCATGT: -0.0352
AGTCAGTG: 0.00692
ATTGCACA: 0.0724
CCCAATCA: 0.00427
CAGTCTGC: -0.102
AGACGCAC: 0.0571
AAGAGAAC: -0.134
AAGCTTTA: -0.117
AACGTTAT: -0.27
